Published values pooled from the literature.
Protocols differ between the studies behind these lines. ± marks the error that the study gave.
Cell line: A549

CC(=O)c1cccc(NC2C(N)C(NC(=O)N(C)C)(C(C)O)C(O)C2(O)COC(=O)c2c(C)cccc2O)c1 (centres unmarked)
EC50 (cell growth or viability): 32 nM

CC(C)OC1(CO)CCC2C(C)(CO)C(O)CCC2(C)C1C=CC1=CCOC1=O (centres unmarked)
inhibition (cell growth or viability, MTT; 20 µM, 48 h): 13.2%

CC(C)=CCn1c2ccc(Br)c(=O)c-2nc2ccccc21
selectivity index (cytotoxicity, WST-8; baseline: IC50 MRC5 over IC50 A549): 1.64

COc1ccc([C@@H]2CC(=O)c3c(O)cc(O[C@@H]4O[C@H](CO[C@@H]5O[C@@H](C)[C@H](O)[C@@H](O)[C@H]5O)[C@@H](O[C@H]5O[C@H](CO)[C@@H](O)[C@H](O)[C@H]5O)[C@H](O)[C@H]4O)cc3O2)cc1O
cell count (trypan blue exclusion; 50 µg/mL, 24 h): 13300 ± 389

O=C(CSC(=S)N1CCCC1)Nc1ccc2c(c1)C(=O)c1ccccc1C2=O
phosphotyrosine level (phospho-flow cytometry; 25 µM, high serum; baseline: vehicle): ~2 fold decrease

Nc1cccc(S(=O)(=O)N2CCCN(S(=O)(=O)c3ccc4c(c3)OCCO4)CC2)c1
de novo lipogenesis (U-13C6 glucose GC-MS; 100 µM, 3 days): decreased

CC1=CC(C)=[N+]2C1=C(CO)c1c(C)cc(C)n1[B-]2(F)F
phototoxicity index (resazurin; 0.1667 h, with: 510 nm light, 10 min; baseline: dark over light IC50): 9 ± 3

CCCC1OC2CC3C4CCC5=CC(=O)C=CC5(C)C4C(O)CC3(C)C2(C(=O)COC(=O)C(C)N)O1 (centres unmarked)
inhibition (IL-6 release, inhibitor, ELISA; 1 nM, 24 h, LPS-stimulated): > 50%

C[C@H]1CN(C(=O)c2cn(-c3ccnc(N)n3)c3cc(C#CC4(O)CCCCC4)ccc23)CCN1
cell migration (wound-healing; 5 µM): 32%

Cc1cc(Nc2cc(CN3CCN(C)CC3)cc(NC(=O)c3cccc(Nc4ccnc5ccccc45)c3)c2)nc(N)n1
time to peak ATM autophosphorylation: 2 h

[Cl-].[Cl-].[Ru+2].c1ccc(-c2ccccn2)nc1.c1ccc(-c2ccccn2)nc1.c1ccc(-c2ccnc3c2ccc2c(-c4ccccc4)ccnc23)cc1
oxygen consumption rate (Seahorse MitoStress; concentration not given, 1 h, dark): no effect

C[C@@H]1O[C@@H](OC[C@H]2O[C@@H](OCCc3ccc(O)c(O)c3)[C@H](O)[C@@H](O)[C@@H]2OC(=O)/C=C/c2ccc(O)c(O)c2)[C@H](O)[C@H](O)[C@H]1O
H3K4me2 accumulation (western blot; concentration not given): 206%

Cc1ccc(C(C)C)cc1.O=C([N-]c1nc2ccccc2s1)c1cnccn1.[Cl-].[Ru+2]
selectivity index (cytotoxicity, MTT; baseline: KMST-6 over A549): > 2

Cc1cccc(-c2cccc(C)n2)n1.[Cl-].[Cl-].[Ru+2].c1ccc(-c2ccccn2)nc1.c1ccc(-c2ccccn2)nc1
lowest concentration inhibiting OCR (oxygen consumption rate, Seahorse extracellular flux; 1 h, dark): > 25 µM

[Cl-].[Cl][Ru-4]123([n+]4ccccc4-c4cc(-c5ccccc5)cc([n+]41)-c1cccc[n+]12)[n+]1ccc(-c2ccccc2)c2ccc4c(-c5ccccc5)cc[n+]3c4c21
cells with NPM1 translocation (0.5 µM, 24 h): 36%

[Cl-].[Cl-].[Ru+2].c1ccc2nc(-c3ccc4ccccc4n3)ccc2c1.c1ccc2nc(-c3ccc4ccccc4n3)ccc2c1.c1cnc2c(c1)ccc1cccnc12
maximal respiration reduction (Seahorse Mito Stress Test; concentration not given, with: 450 nm light 29.1 J/cm2; baseline: vehicle): < 30%

FC(F)(F)c1ccnc(-c2cc(C(F)(F)F)ccn2)c1.FC(F)(F)c1ccnc(-c2cc(C(F)(F)F)ccn2)c1.[Cl-].[Cl-].[Ru+2].c1csc(-c2ccc(-c3ccc(-c4nc5c6cccnc6c6ncccc6c5[nH]4)s3)s2)c1
EC50 (cell viability; 100 J/cm2 light, normoxia, with: visible light 400-700 nm): 700 nM

A few entries again:
CCCC1OC2CC3C4CCC5=CC(=O)C=CC5(C)C4C(O)CC3(C)C2(C(=O)COC(=O)C(C)N)O1 (centres unmarked)
inhibition (IL-6 release, inhibitor, ELISA; 1 nM, 24 h, LPS-stimulated): > 50%
